# Measured values from different studies.
# Lines come from different studies, so protocols differ. “And” joins repeats or separate records; there may be more than shown. ± gives the spread as reported.
Compound,test,system,conditions,scale,quantity,result
C[C@@H](c1ncncc1F)[C@](O)(Cn1cncn1)c1ccc(F)cc1F,refers to: Nausea,human,"oral, 200 mg",,drug-related TEAE incidence,0%
CCOC(=O)N1C[C@@H](C2CCOCC2)N[C@@H](C2CCC2)C1,"shake-flask, LC-HRMS",aqueous buffer,"16 h, pH 6.8",,solubility,> 750 µM
N#Cc1ccc2c(c1)[C@H]1CCCN(C(=O)c3ccc4[nH]cnc4c3)[C@H]1C2,,human females,"10 mg, end of trial",,total testosterone level,0.4 nmol/L
Cl.[2H]C([2H])([2H])CC(=O)c1cnc(NC(=O)C2CC2)cc1Nc1cccc(-c2ncn(C([2H])([2H])[2H])n2)c1OC,geometric mean,human,"oral, 20 mg once daily, day 1, fasted, liquid, multiple dose",,AUC(0-inf),1220 ng·h/mL
[18F]c1ccc(-c2ccc3c(c2)[nH]c2ccncc23)cn1,ex vivo biodistribution,"APP/PS1 mouse, AD model, liver","intravenous, 30 min",,SUV,2.59 ± 1.28
CCOc1c([C@H](C)n2nc(C)c3c(N)ncnc32)cc(Cl)c(F)c1[C@@H]1CNC(=O)C1,,previously treated B-cell malignancy patients,"oral, 5 to 45 mg once daily, across doses and timepoints",,lowest LSM ΔQTcF,-6.83 ms
C[C@H](CCC(=O)O[C@@H]1O[C@H](C(=O)O)[C@@H](O)[C@H](O)[C@H]1O)[C@H]1CC[C@H]2[C@@H]3[C@H](O)C[C@@H]4C[C@H](O)CC[C@]4(C)[C@H]3CC[C@]12C,,"human, plasma",endogenous baseline diurnal,,Cmin,9.86 ± 1.6 nM
CC(C)(C(=O)N1CCOc2c(C#N)cncc2C1)C(F)F,refers to: chest discomfort,human,"oral, 20 mg twice daily, 14 days, multiple ascending dose",,subjects with adverse event,0%
O=C(Nc1nc2cccc(-c3ccc(CN4CCS(=O)(=O)CC4)cc3)n2n1)C1CC1,refers to: epigastric discomfort,human rheumatoid arthritis patients,"oral, 200 mg once daily, 4 weeks, regardless of relatedness",,treatment-emergent adverse events,8.3%
CCCCC/C=C\C/C=C\CCCCCCCC(=O)O.Cc1cc(/C=C/C#N)cc(C)c1Nc1ccnc(Nc2ccc(C#N)cc2)n1,,aqueous buffer,pH 4.5,,equilibrium solubility,0.09 ± 0.01 µg/mL
CCOC(=O)N1C[C@@H](c2cc(F)c(O)c(F)c2)N[C@@H](c2ccc([C@H](C)CC)cc2)C1,"shake-flask, LC-HRMS",aqueous buffer,"16 h, pH 6.8",,solubility,< 4 µM
COc1ccc([C@@H](O)c2cc(-c3ncnc4cc(N5CCOCC5)ccc34)c(F)cc2Cl)nn1,,locally advanced rectal cancer patients,"250 mg, added: capecitabine and radiotherapy",,lymphocyte count decrease TEAE,50%
C=CCN1CC(=O)N2[C@@H](Cc3ccc(O)cc3F)C(=O)N(Cc3cccc(N4CC(N5CCN(CC)CC5)C4)n3)C[C@@H]2N1C(=O)NCc1ccccc1,,advanced solid tumour patients,"oral, 160 mg twice daily, grade ≥3, dose-escalation",,treatment-related ALT increased,0%
Cc1cc(NC2CCN(C(=O)OC3CCN(C(=O)/C=C/CN(C)C)C3)CC2)n2ncc(C(C)C)c2n1 (centres unmarked),"Phase I dose escalation CTCAE v4.0, refers to: blood creatinine increased",patients with advanced solid tumours,"dose not given, QD dosing any grade",,patients with adverse event,2%
O=c1[nH]c(=O)n([C@@H]2O[C@H](CO)[C@@H](O)[C@@H]2F)cc1CCC[18F],,"nude mice, RG2 tumour, heart","intravenous, dose not given, 2 h",,biodistribution,0.15 ± 0.08 %ID/g
CCO[C@H]1CCN(Cc2c(OC)cc(C)c3[nH]ccc23)[C@H](c2ccc(C(=O)O)cc2)C1,,"PNH patients, active haemolysis","oral, 50 mg, 4 weeks, treatment",,incidence of dyspepsia,0%
CCC(C)n1ncn(-c2ccc(N3CCN(c4ccc(OCC5COC(Cn6cncn6)(c6ccc(Cl)cc6Cl)O5)cc4)CC3)cc2)c1=O (centres unmarked),,"human, plasma","oral, dose not given, day 12 predose, median",,trough plasma concentration,66.4 ng/mL
Cn1ncnc1[C@H]1c2n[nH]c(=O)c3cc(F)cc(c23)N[C@@H]1c1ccc(F)cc1,,"human patients, plasma","oral, 600 µg/m2 twice daily day 1, day 5, dose level DL5, median, added: temozolomide 40 mg/m2 daily days 2-6",,AUCτ,206 ng·h/mL
C=CC(=O)N1CCC([C@@H]2CCNc3c(C(N)=O)c(-c4ccc(Oc5ccccc5)cc4)nn32)CC1,,healthy human volunteers,"oral, dose not given",,any treatment-emergent adverse event,14%
C[C@H](CCC(=O)NCC(=O)O)[C@H]1CC[C@H]2[C@@H]3CC[C@@H]4C[C@H](OS(=O)(=O)O)CC[C@]4(C)[C@H]3C[C@H](O)[C@]12C,,"human, plasma",control,,Cmin,127 ± 54 nM
CCc1cc(C(=O)NC)c2nccc(N3CCc4c(cc(Cn5ccnc5)cc4-c4cn(C)nc4C(F)(F)F)C3=O)c2c1,,Sprague Dawley rats,"oral, 100 mg/kg once daily, 7 days",,blood HDW,21.8 ± 0.94 g/L
CCO[C@H]1CCN(Cc2c(OC)cc(C)c3[nH]ccc23)[C@H](c2ccc(C(=O)O)cc2)C1,,"human moderate hepatic impairment, plasma","oral, 200 mg single dose, geometric mean",,total half-life,24.4 h
CCc1ccc(-c2ccc(-c3cc(F)c(F)c(F)c3)c(F)c2)cc1,,"rat, placenta","10 ng/mL in perfusate, low dose, mixture of 21 LCMs",,placental accumulation,2.45 ± 2.57 ng/g
Cc1c(C(=O)O)ccc2c3n(nc12)[C@@H]1[C@H](C3)N(CC2CC2)[C@@]2(C(=O)Nc3cc(Cl)ccc32)[C@H]1c1cccc(Cl)c1F,,"female BALB/c nude mice, plasma","oral, 1 mg/kg twice daily, 7 h, SJSA-1 tumour-bearing",,plasma concentration,769 nM and 531 nM and 473 nM and 465 nM and 306 nM
OC[C@H]1O[C@@H](c2ccc(Cl)c(Cc3ccc(O[C@H]4CCOC4)cc3)c2)[C@H](O)[C@@H](O)[C@@H]1O,,"Japanese type 1 diabetes patients, blood","25 mg, day 28",relative to: baseline,change in Phosphate,0 mg/dL
O=C(NO)c1ccc(CN(c2cnccn2)c2cnccn2)cc1,,human,"oral, dose not given, at least one TEAE, all dose cohorts, sample B patients",,patients with adverse event,85%
O=C(c1cccnc1-c1ccncc1)N1CCC(O)(Cc2ccccc2)CC1,,"human, plasma","oral, 300 mg, added: itraconazole",,Cmax at steady state,2150 ng/mL
CN[C@@H](C)C(=O)N[C@H]1CN(S(=O)(=O)c2cccc(S(=O)(=O)N3CC[C@H]4CC[C@@H](C(=O)NC(c5ccccc5)c5ccccc5)N4C(=O)[C@@H](NC(=O)[C@H](C)NC)C3)c2)CC[C@H]2CC[C@@H](C(=O)NC(c3ccccc3)c3ccccc3)N2C1=O,LC-MS/MS,"human, advanced solid tumours, plasma","intravenous, 7 mg weekly, day 1",,AUC(0-t),134 ± 3.96 ng·h/mL
CNC(=O)c1ccc(-c2cnc3ncc(Cc4ccc5ncccc5c4)n3n2)cc1F,"refers to: Insomnia, all grades",hepatocellular carcinoma patients,"oral, 600 mg twice daily, expansion cohort, any causality",,patients with adverse event,0%
Cn1cc(Nc2nccc(-c3ccc4c(c3)CN(C3COC3)CC[C@H]4NC(=O)c3cn(C(C)(C)C)nn3)n2)cn1,,"human, whole blood","50 mg twice daily, day 7",relative to: pre-dose baseline,monocyte count change,26.6%
CC(C)[C@@H](CS(=O)(=O)C(C)C)N1C(=O)[C@@](C)(CC(=O)O)C[C@H](c2cccc(Cl)c2)[C@H]1c1ccc(Cl)cc1,,"FVB mouse, wild type, spinal cord","oral, 20 mg/kg",,AUC(0-inf),67 ± 8.6 ng·h/mL
NC[C@@H]1O[C@H](O[C@H]2[C@@H](O)[C@H](O[C@@H]3[C@@H](O)[C@H](N)C[C@H](N)[C@H]3O[C@H]3O[C@H](CO)[C@@H](O)[C@H](O)[C@H]3N)O[C@@H]2CO)[C@H](N)[C@@H](O)[C@@H]1O,,NSG mice,"dose not given, day 10 of treatment",,body weight,24.4 g and 24.6 g and 23.2 g and 23.6 g
Cc1c(C(=O)O)ccc2c3n(nc12)[C@@H]1[C@H](C3)N(CC2CC2)[C@@]2(C(=O)Nc3cc(Cl)ccc32)[C@H]1c1cccc(Cl)c1F,,human patients phase Ia,"oral, dose not given, all grades, all patients",,decreased weight incidence,9.3%
CCN1CCN(Cc2ccc(NC(=O)c3ccc(C)c(NC(=O)c4cncc(-c5cccs5)c4)c3)cc2C(F)(F)F)CC1,,"C57BL/6 mice, epithelial lining fluid","intraperitoneal, 10 mg/kg",,apparent volume of distribution,6.47 L/kg
CCOC(=O)N1C[C@@H](C2CCCCC2)N[C@@H](c2cccnc2)C1,"shake-flask, LC-HRMS",aqueous buffer,"16 h, pH 6.8",,solubility,> 750 µM
Cc1nc(-c2ccc(OCC(C)C)c(C#N)c2)sc1C(=O)O,,"human, plasma","oral, 10 mg, added: verinurad 2.5 mg",relative to: test over reference,geometric mean ratio AUC(0-24),93.9
NC1(C(=O)N[C@@H](CCO)c2ccc(Cl)cc2)CCN(c2nc[nH]c3nccc2-3)CC1,,metastatic CRPC patients,"400 mg b.i.d., any grade, treatment-related, added: enzalutamide 160 mg daily",,incidence of Neutropenia,14.3%
C[Si](C)(C)O[Si](C)(C)C,,,"2 to 27 µg/L, 28.3 °C",,log KAW,2.6
CC1(C)C(/C=C/C2=C(Cl)C(=C/C=C3\N(CCCCCC(=O)O)c4ccccc4C3(C)C)/CCC2)=[N+](CCCCCC(=O)O)c2ccccc21,,methanol,,,Stokes shift,26 nm
O=c1[nH]c(=O)n([C@@H]2O[C@H](CO)[C@@H](O)[C@@H]2F)cc1CCCC[18F],,"nude mice, RG2 tumour, kidney","intravenous, dose not given, 2 h",,biodistribution,0.33 ± 0.11 %ID/g
Cc1cccc(CNC(=O)c2cn(CCNC(=O)c3ccccc3Sc3c([N+](=O)[O-])ncn3C)c3cc4c(cc3c2=O)OC(F)(F)O4)n1,,"Sprague-Dawley rat, male, plasma","intramuscular, 3 mg/kg",,MRT(0-inf),7.59 ± 1.91 h
CCCCC[C@H](O)CC[C@@H]1[C@H]2Cc3cccc(OCC(=O)O)c3C[C@H]2C[C@H]1O,LC-MS/MS,"Japanese PAH patients, plasma","inhaled, 54 µg, background ERA therapy",,geometric mean half-life,0.62 h
N[C@@H](C[18F])C(=O)O,PET imaging,"female athymic nude mice, U-87 MG xenograft, muscle","intravenous, 30 min",,tracer uptake,1.19 ± 0.14 %ID/cc
C[C@@H](N)c1cc(Cl)ccc1Cn1c(=S)[nH]c(=O)c2[nH]ccc21,,human severe renal impairment,"oral, 2.5 mg single dose",,subjects with adverse events,10%
O=C(Nc1ccc(OC(F)(F)Cl)cc1)c1cnc(N2CC[C@@H](O)C2)c(-c2ccn[nH]2)c1,"refers to: Amylase increase, grade ≥3","human patients, dose-finding study","oral, sample A of sample B patients",,patients with event,7.1%
Cc1ccc([C@@H]2O[C@H](CO)[C@@H](O)[C@H](O)[C@H]2O)cc1Cc1ccc(-c2ccc(F)cc2)s1,,Japanese type 2 diabetes patients,"100 mg, day 4, 24 h urine collection",relative to: baseline,urinary calcium excretion change,-4.12 mg
CCc1cc2c(cc1N1CCC(N3CCOCC3)CC1)C(C)(C)c1[nH]c3cc(C#N)ccc3c1C2=O,,"ALK inhibitor-naive patients, body weight below sample A kg","oral, 600 mg twice daily, week 6",,average plasma concentration,1600 nM
Cc1ccc(Sc2ccccc2N2CCNCC2)c(C)c1,refers to: Thirst,healthy adult men,"oral, 5 mg single dose, 10 day",,participants with TEAE,0%
CNCCOC12CC3(C)CC(C)(CC(Cn4ncc(-c5ccc(N6CCc7cccc(C(=O)Nc8nc9ccccc9s8)c7C6)nc5C(=O)O)c4C)(C3)C1)C2,,"beagle dog, male, anaesthetised","intravenous bolus, 0.03 mg/kg, 75 min",relative to: baseline,QRS duration change,-2 ms
CNCc1ccc(-c2[nH]c3cc(F)cc4c3c2CCNC4=O)cc1,refers to: Headache,human patients,"oral, dose not given, all grades, all doses",,patients with adverse event,19.6%
Cn1cnc2ccc(Nc3c(F)ccc(NS(=O)(=O)N4CC(F)C4)c3Cl)c(Cl)c2c1=O,refers to: any adverse event any grade,human patients,"dose not given, monotherapy trial",relative to: patients,patients with adverse events,17%
CCCC1CCC(c2ccc(OCC)c(F)c2F)CC1 (centres unmarked),,"rat, placenta","1000 ng/mL in perfusate, middle dose, mixture of 21 LCMs",,placental accumulation,17.2 ± 18.2 ng/g
Cc1c(-c2ccc(N3CCc4cccc(C(=O)Nc5nc6ccccc6s5)c4C3)nc2C(=O)O)cnn1CC12CC3(C)CC(C)(C1)CC(OCCNCC[C@H](O)CO)(C3)C2,,"beagle dog, anaesthetised","intravenous infusion, 0.1 mg/kg/min, 5 min",relative to: baseline,mean arterial pressure change,1 mmHg
O=C(COc1ccc(Cl)cc1)NC12CC(c3nnc([C@H]4C[C@@H](OC(F)(F)F)C4)o3)(C1)C2,refers to: Nausea,human,28 (unit not given),,adverse event incidence,10.5%
CCOC(=O)N1C[C@@H](c2ccc(C(F)(F)F)cc2)N[C@@H](c2cnc(-c3ccccc3)nc2)C1,"shake-flask, LC-HRMS",aqueous buffer,"16 h, pH 6.8",,solubility,< 4 µM
Cc1coc([C@H]2C[C@H]3[C@@H](CF)SC(N)=N[C@@]3(c3ccc(F)cc3F)CO2)n1,,"male 129/SVE mouse, CSF","subcutaneous, 80 mg/kg, 7 h",,CSF concentration,15 nM

# Repeated from above:
Compound,test,system,conditions,scale,quantity,result
Cc1c(C(=O)O)ccc2c3n(nc12)[C@@H]1[C@H](C3)N(CC2CC2)[C@@]2(C(=O)Nc3cc(Cl)ccc32)[C@H]1c1cccc(Cl)c1F,,"female BALB/c nude mice, plasma","oral, 1 mg/kg twice daily, 7 h, SJSA-1 tumour-bearing",,plasma concentration,769 nM and 531 nM and 473 nM and 465 nM and 306 nM
CCc1ccc(-c2ccc(-c3cc(F)c(F)c(F)c3)c(F)c2)cc1,,"rat, placenta","10 ng/mL in perfusate, low dose, mixture of 21 LCMs",,placental accumulation,2.45 ± 2.57 ng/g
CCOC(=O)N1C[C@@H](C2CCOCC2)N[C@@H](C2CCC2)C1,"shake-flask, LC-HRMS",aqueous buffer,"16 h, pH 6.8",,solubility,> 750 µM
